Experimental data collected from several papers.
Every numbered part comes from another study and shows a few of its results, in no order. Changes are numbered by the printed parent chain.

Study 1
Target: CCNE2, cyclin fold, Cln2 fusion (human)
Method: yeast growth competition, sequencing
Matrix: yeast
Setting: weak parent motif
Relative to: not given
Direction: higher = stronger binding
Measurement: normalised enrichment score
Starting sequence: CDC6 docking peptide (human); TLKGRRLVFDNQL; partner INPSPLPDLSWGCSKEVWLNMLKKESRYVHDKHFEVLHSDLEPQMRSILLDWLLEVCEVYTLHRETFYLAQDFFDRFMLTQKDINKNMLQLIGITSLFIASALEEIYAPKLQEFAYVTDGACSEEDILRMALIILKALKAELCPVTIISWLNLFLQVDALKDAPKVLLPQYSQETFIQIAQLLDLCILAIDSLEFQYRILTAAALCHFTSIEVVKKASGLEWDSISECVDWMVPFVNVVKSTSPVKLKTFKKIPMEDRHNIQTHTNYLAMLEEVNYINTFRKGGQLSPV
D10G: -0.474
L13D: -0.126
D10L: 0.423
N11M: 0.154
F9L: 0.0724
L13T: -1.05
V8M: -0.545
R6Q: 0.0352
G4K: 1.01
N11C: 0.894
R6M: 0.744
N11E: 0.334
L13F: 0.228
G4D: 0.428
L7C: -0.0593
L2Q: 0.465
R5E: -0.0154
G4F: -0.307
R5Q: -0.606
L2Y: 1.46
T1G: 0.713
Q12R: 0.288
L13W: -0.0979
L7Q: 0.788
R6D: -0.282

Study 2
Target: Ras GTPase-activating protein-binding protein 1, RRM domain (G3BP1, Homo sapiens, UniProt Q13283)
UniProt Q13283, sequence (whole entry, looked up): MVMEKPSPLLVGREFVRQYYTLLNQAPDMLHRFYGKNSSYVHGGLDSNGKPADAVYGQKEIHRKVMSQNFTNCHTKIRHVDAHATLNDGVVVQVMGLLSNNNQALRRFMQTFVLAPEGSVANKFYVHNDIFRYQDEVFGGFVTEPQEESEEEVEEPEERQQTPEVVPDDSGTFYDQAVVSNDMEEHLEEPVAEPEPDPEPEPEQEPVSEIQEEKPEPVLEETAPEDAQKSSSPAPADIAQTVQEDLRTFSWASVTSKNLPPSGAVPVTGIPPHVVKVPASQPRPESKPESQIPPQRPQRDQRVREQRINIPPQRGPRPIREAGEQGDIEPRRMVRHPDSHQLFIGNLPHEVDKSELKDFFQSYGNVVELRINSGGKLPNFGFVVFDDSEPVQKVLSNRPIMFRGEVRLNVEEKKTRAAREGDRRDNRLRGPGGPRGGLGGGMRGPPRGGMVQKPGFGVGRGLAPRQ
Method: RNA Bind-n-Seq
Form: RNA
Matrix: in vitro
Concentration: 1 µM
Setting: whole 134-nt RNA, ends assumed
With: 150 mM KCl
Relative to: input library
Direction: higher = stronger binding
Measurement: log2 enrichment
Shared flanks, not repeated: GGGAGUUCUACAGUCCGACGAUC … UGGAAUUCUCGGGUGUCAAGG
ACCAUGCAGGUGGGCAUCUUUGGGAAGUGGAGCAAGGGGGGGAUAGGGAGGGGGGUAACACUUUGGGAACAGGUGGUCCCAGGUCGUUUC: -0.543
CACAGACAACACGCACCCACACAGACACAGAGGGAAGGGGUUGGGAGGGGGACAGGGUGCACAGCAGGGCGGGGUAGGACCCCAGCCCCU: -0.0536
AGUCCUGUGCUACACAUCGUAUGUACCGAAUCAAAUUUAAACCCCCCCAAACCCAAAAAAGUAUUAUGUUACGCCGUUCGGAUCUGCACU: -0.272
UAACUUUAGAGGAGGGUCUGAUGGAUAUGGCAGUGGACGUGGAUUUGGGGAUGGCUAUAAUGGGUAUGGAGGAGGACCUGGAGGUGGCAA: -0.658
CUCAAGUCCUGUGCUACACAUCGUAUGUACCGAAUCGGGUUGGGUUGGUUGGGGAAAGUAUUAUGUUACGCCGUUCGGAUCUGCACUUCC: 0.261
CUCAAGUCCUGUGCUACACAUCGUAUGUACCGAAUCGGAAAAAGGAGGAAAGGAAAGUAUUAUGUUACGCCGUUCGGAUCUGCACUUCCA: -0.213
AAGUCCUGUGCUACACAUCGUAUGUACCGAAUCGGGAAAAAGGGAGGGAAAAAGGGAAAGUAUUAUGUUACGCCGUUCGGAUCUGCACUU: 0.54
CAAGUCCUGUGCUACACAUCGUAUGUACCGAAUCGGGUUUUUGGGAAAGGGUGGGAAAGUAUUAUGUUACGCCGUUCGGAUCUGCACUUC: 0.691
AGUCCUGUGCUACACAUCGUAUGUACCGAAUCGGGUUUUUUUGGGAGGGAAAAAGGGAAAGUAUUAUGUUACGCCGUUCGGAUCUGCACU: 0.355
UGGGAGGUGGAUUUUGUUUAUUUUUUUAGCUCAUUUCCAAGGGUGGGAAUUUUUUUUUAAUAUGUGUCAUGAAUAAAGUUGUUUUUGAAA: 1.75

Study 3
Target: Interferon regulatory factor 7, full length, phosphomimetic (IRF7, Homo sapiens, UniProt Q92985, residues 1-503, S471D/S472D/S475D/S476D/S477D/S483D/S484D/S487D)
Method: protein-binding microarray
Form: double-stranded DNA, one strand shown
Matrix: in vitro
Concentration: 2200 nM top
Setting: 60-bp whole probe
With: salmon DNA 0.4 mg/ml
Relative to: random background probes
Direction: higher = stronger binding
Measurement: fitted relative affinity
Shared flanks, not repeated: GCCTAGCAC … GTCTTGATTCGCTTGACGCTGCTG
Residues (chain): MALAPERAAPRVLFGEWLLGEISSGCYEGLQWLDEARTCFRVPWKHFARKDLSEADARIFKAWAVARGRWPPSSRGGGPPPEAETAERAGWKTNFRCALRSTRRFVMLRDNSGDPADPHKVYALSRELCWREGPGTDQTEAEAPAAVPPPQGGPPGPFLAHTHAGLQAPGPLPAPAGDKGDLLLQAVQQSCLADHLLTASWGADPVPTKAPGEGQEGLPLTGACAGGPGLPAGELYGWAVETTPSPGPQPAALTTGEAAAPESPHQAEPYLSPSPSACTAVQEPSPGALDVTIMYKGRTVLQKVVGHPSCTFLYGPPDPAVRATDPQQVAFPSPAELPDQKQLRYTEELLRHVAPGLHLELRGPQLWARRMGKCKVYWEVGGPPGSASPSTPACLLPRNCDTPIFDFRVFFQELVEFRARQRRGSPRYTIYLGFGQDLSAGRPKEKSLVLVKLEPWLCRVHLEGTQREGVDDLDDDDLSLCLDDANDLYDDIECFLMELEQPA
TTAGAACTGGGGACTGGATTCGTGCTA: -0.339 z-score
TACGAACTGGGGTTTCGAGACGTGCTA: 1.3 z-score
TCTCCTTTCGGAATACCCTCGTGCTAG: 6.62 z-score
TTAGGTCACCTACTGCTTTAGTGCTAG: 0.285 z-score
GACGGTTCGCTTTTCCTGACGTGCTAG: 2.1 z-score
GACGGACTGGGGTTTCGTGACGTGCTA: -0.166 z-score
TTGGATTTCAGTTTCGATTAGTGCTAG: 8.24 z-score
TTAGGTATCGACTTTCGGATAGTGCTA: 2.66 z-score
ACCCATTGAGATTTTCATTATGTGCTA: 0.814 z-score
TTAGGTATCGGTATCGGTTCGTGCTAG: 1.81 z-score
TCACTTCCCAATTGTCTTACTGTGCTA: 3.4 z-score
GACGGTATCGGGTTTCGGGAGGTGCTA: 1.03 z-score
TTTGCTTTCTTTATGCACTCGTGCTAG: 2.87 z-score
TTACGTCTCCTTTTCCTTTAGTGCTAG: 3.21 z-score
GACGGTTCCCTTTTCCAGACGTGCTAG: 2.69 z-score
TTAGGTCTCCTTTTCCTTTAGTGCTAG: 1.96 z-score
TTAGATCTCAGTCTCGCTTAGTGCTAG: 0.485 z-score
TTAAATTTCAGACTGGATTAGTGCTAG: -0.254 z-score
TCAAGTCTGCAACATGGGACTGTGCTA: -0.313 z-score
TTAGGTATCGACTTTCTGTTAGTGCTA: 2.28 z-score
TTAGATATCGGGACTTGATTAGTGCTA: -0.33 z-score
GACGGACTGCTTATCCTGAAGTGCTAG: 0.221 z-score
TGAGGTATCGGTCTCGGTTAGTGCTAG: 0.504 z-score
TTAGGTTTCAGTATCGATTAGTGCTAG: 2.34 z-score

Study 4
Target: RNA binding protein fox-1 homolog 2, RRM domain, GST-SBP tag (RBFOX2, Homo sapiens, UniProt O43251-10, residues 100-194)
Method: RNA Bind-n-Seq
Form: RNA
Matrix: in vitro
Concentration: 365 nM
Setting: natural RNA segment, single round, ends assumed
Relative to: no-protein control
Direction: higher = stronger binding
Measurement: RBNS enrichment (R)
Shared flanks, not repeated: GGGAGUUCUACAGUCCGACGAUC … UGGAAUUCUCGGGUGCCAA
Residues (chain): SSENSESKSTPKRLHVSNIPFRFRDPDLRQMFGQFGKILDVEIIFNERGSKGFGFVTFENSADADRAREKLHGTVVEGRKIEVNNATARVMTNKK
AUUCACCAGAAGGGAAACAUCUCAGGCCAACAUAGGCAAAUGAAAAGGGCUAUUAAAAUAUUUUUACACCUUUGAAAAUUGCAGGCUUGGUACAAAGAGGUCUGUCAUCU: 0.281
AGUAGCCGAGAGUGUCAUUCUCUCCACCCUUUCUGUGUGUACCAGAGCCACACCCAUGCCAUUACUGUAACAUUCCAACAUCUCCAUCUGACCUGACCUCCAUAUCUUCU: 0.461
CACAAGGUAUCAGAAGUACUUUCAGUCUACAGGUCUCUAUGUCCACAUAACUAAGGAAUGCCUAACUAAUGGAAACUUAAGUUCCUUCUAGCCAUUAAAACAGAGAGAAG: 0.224
UCAGUGGUUUAGAAAUGAGAUACCAGUGUUAAUGAAAAGUGUGUGCUCUUUGCUUUUGCAUGGCUUGGCUUAGUAUCCAAGGUAUAUUAGGGCCACUUGAAAGCAUGAAG: 19.4
GUUUUCUUUUGUAGGUAUAAAUAAAUACUUGACAAUAAAGGUGUGAAUUUUUUAUUACAUUAAAACUAAAAAGAGUUUAAGUGUACUCUUAAUGUUUUCCUCCAAGCAGU: 0.468
UCUGAGCCCUUCAGUUUCAUAAUUGUUUUAUCCUGAACGUAGUUGUGACAUAGACAUUUCUCAAAAGGGUCUGAUACAUCAAACUCCUAACAAGUAGGAGCAGCAACUAG: 0.291
GUUUGGUAUUACUUUGACUAUGUCCACAAUAGCAGCAAUCUUGGCUUUUUGUUAGCCAAAGUGUUCUGUUUAUUUGGCUUGUCAUUUUCCGUGUGCUUUAAAAAGGUGUU: 0.357
AGUGAGGCUGGAGAAAUGGCUUAGAGGUUAAGAGUGUGGACUGUUCUUGCGUAGUUAUGACCAUUGAAUUUAGUUCCCAACAUUCUUUUUGGGUGGCUCGAAACUUCCUG: 0.493
AGCCUAUCUCCAGGUAGAAAGGAGGCUUGGCCACAUCCACAUCCUGUUGAGAGACAUAGUCUCAUUUCCCUCUCUACCUUCUAAGCUACCCUUCUUGCUAAUCCUUCUUC: 0.436
GUGGAAUCAGAAACCUGUUUUGAUAUGUGUUCUCUAUGAGUUAAGUCUGAUUUGUCUUUUUAUUUCAUGAUGCAUGUCUUUUUUUUCUUUUGUCAGGAUAACGUCAUAUA: 1.11
AUGUAUGUUUAAUAUAACAUGACAGGCACUAGGACGUCUGCCUUUUUAAGGCAGUUCCGUUAAGGGUUUUUGUUUUUAAACUUUUUUUUGCCAUCCAUCCUGUGCAAUAU: 0.436
GGGCUCAGAGAGUCCCAGCCCUAAGGGUGUGAACCUCACCUCCUGGGGCUUCCGAGCUACAGGGCUGGGACCAGGUCAUGCAGCUGAAAGUCUACGUUAAAAAAAAAAAG: 0.42

Some of these lines once more (study 3):
GACGGACTGGGGTTTCGTGACGTGCTA: -0.166 z-score
TCTCCTTTCGGAATACCCTCGTGCTAG: 6.62 z-score
TTAGGTATCGACTTTCGGATAGTGCTA: 2.66 z-score
GACGGACTGCTTATCCTGAAGTGCTAG: 0.221 z-score
TTACGTCTCCTTTTCCTTTAGTGCTAG: 3.21 z-score
TTAAATTTCAGACTGGATTAGTGCTAG: -0.254 z-score
